# Measured values pooled from the literature.
# Parts stem from different laboratories: compare values within a part only. Positions count from the first letter of the parent shown.

# Series 1
# Target: Histone acetyltransferase KAT6A, winged helix 1, GST fusion (KAT6A, Homo sapiens, UniProt Q92794, residues 1-85)
# Method: protein binding microarray
# Form: double-stranded DNA, one strand shown
# Sample: in vitro
# Tested at: not given
# Notes: 8-mer, flanks averaged, mean of 2 arrays, mostly near background
# Baseline: not given
# Reading: higher = stronger binding
# Residues (chain): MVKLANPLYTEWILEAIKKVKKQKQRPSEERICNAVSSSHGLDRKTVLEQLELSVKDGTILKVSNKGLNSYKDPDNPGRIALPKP
Sequence,E-score
AAGTGGTG,-0.14
GAAGAGAC,-0.00255
ACACAGGA,-0.213
CGAATACG,0.0909
GCCAGGGC,0.0207
ATCAACCG,0.0925
ACCGAAGT,-0.11
ACCATTTA,-0.0634
ACCGGAGC,0.201
AGCCTGGA,-0.143
GAGGAACC,0.0341
TACTGCAA,-0.124
AAATAGGC,0.00396
ATTTTTAG,-0.0492
CGTTTAAC,-0.111
CGGCATAC,0.336
ATAGTTGG,-0.182
AAACCTAC,-0.175
CCAGTTTC,-0.194
ACACTCAT,-0.134
ATAAGGCC,0.0878
CAATACGC,0.125
CCGGTACA,0.174

# Series 2
# Target: MAFK, bZIP domain (human)
# Method: DHFR protein complementation
# Sample: yeast
# Notes: single substitutions, most at no-binding floor
# Baseline: wild-type JUN-FOS pair
# Reading: higher = stronger binding
# Starting sequence: JUN, bZIP domain (human); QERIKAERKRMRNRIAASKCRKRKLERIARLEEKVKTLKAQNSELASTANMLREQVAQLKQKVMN; partner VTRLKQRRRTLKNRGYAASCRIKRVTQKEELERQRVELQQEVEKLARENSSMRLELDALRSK
Change,binding fitness
A46L,-1.5 natural log
L59S,-1.53 natural log
L31N,-1.54 natural log
M51L,-1.53 natural log
S43N,-1.49 natural log
L38P,-1.49 natural log
M51E,-1.56 natural log
K39H,-1.52 natural log
K39G,-1.49 natural log
E54A,-1.29 natural log
E33P,-1.5 natural log
L45C,-1.54 natural log
A46W,-1.55 natural log
L45P,-1.5 natural log

# Series 3
# Target: Prothrombin, mature alpha-thrombin (F2, Homo sapiens, UniProt P00734)
# Method: aptamer microarray, sandwich
# Form: DNA with 2'F-ANA
# Sample: in vitro
# Tested at: 200 nM
# Notes: whole 15-mer aptamer, many near background
# Together with: Cy3 exosite-II aptamer, 400 nM
# Reading: higher = stronger binding
# Sequence: GGTTGGTGTGGTTGG
Modification,mean fluorescence intensity [a.u.]
2'F-ANA at 2 3 4 5 6 13 14 15,62.2
2'F-ANA at 2 5 8 11 12 15,120
2'F-ANA at 2 5 13 15,53
2'F-ANA at 1 2 7 14,57.1
2'F-ANA at 1 4 6 7 9 10 11 14 15,49.3
2'F-ANA at 1 2 4 5 6 7 8 9,67.1
2'F-ANA at 5 8 11 13 15,54
2'F-ANA at 3 4 6 12 13 14 15,253
2'F-ANA at 1 4 5 6 7 8 12,111
2'F-ANA at 2 6 7 8 11 15,375
2'F-ANA at 2 3 5 6 9 10 11 13 15,55.1
2'F-ANA at 1 6 7 8 12 14 15,80.7
2'F-ANA at 1 2 4 6 8 12 14 15,60.1
2'F-ANA at 2 3 5 7 8 10 11 12 13 14,53
2'F-ANA at 1 2 3 5 8 12 15,134
2'F-ANA at 2 3 4 7 8 12 15,1110
2'F-ANA at 2 5 7 8 12 13,139
2'F-ANA at 1 3 4 9 12 13,265
2'F-ANA at 3 4 5 6 7 10 11 13 15,47.6

# Series 4
# Target: Sal-like protein 4, full length isoform A (SALL4, Homo sapiens, UniProt Q9UJQ4, residues 1-1053)
# Sequence of UniProt Q9UJQ4 (whole entry, looked up): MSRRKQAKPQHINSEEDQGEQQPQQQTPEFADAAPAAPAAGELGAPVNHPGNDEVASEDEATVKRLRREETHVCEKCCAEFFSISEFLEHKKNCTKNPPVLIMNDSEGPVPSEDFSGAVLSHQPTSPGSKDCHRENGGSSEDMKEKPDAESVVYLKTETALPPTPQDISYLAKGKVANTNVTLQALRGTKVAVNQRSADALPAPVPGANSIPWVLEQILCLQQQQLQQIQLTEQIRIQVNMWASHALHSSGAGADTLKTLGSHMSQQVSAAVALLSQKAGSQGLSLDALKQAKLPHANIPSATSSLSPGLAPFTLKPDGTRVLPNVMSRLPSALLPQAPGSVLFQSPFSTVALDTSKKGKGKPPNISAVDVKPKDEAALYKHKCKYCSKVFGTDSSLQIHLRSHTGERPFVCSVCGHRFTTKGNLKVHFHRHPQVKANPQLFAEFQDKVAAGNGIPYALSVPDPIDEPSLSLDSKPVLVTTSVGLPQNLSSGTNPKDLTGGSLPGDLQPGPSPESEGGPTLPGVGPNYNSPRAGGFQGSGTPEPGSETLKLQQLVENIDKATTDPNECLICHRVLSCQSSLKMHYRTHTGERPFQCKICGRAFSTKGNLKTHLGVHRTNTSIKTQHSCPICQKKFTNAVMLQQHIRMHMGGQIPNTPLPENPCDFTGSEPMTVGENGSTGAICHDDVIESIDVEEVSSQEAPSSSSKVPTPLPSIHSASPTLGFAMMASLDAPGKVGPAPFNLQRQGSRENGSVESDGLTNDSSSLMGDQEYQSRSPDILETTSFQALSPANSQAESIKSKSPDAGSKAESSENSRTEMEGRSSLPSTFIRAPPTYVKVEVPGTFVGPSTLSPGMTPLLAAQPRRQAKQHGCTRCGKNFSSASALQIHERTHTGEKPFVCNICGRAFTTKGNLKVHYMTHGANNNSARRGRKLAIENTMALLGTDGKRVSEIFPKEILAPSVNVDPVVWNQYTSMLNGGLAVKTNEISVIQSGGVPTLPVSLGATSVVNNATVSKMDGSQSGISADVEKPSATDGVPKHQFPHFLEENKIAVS
# Method: universal PBM
# Form: double-stranded DNA, one strand shown
# Sample: in vitro
# Tested at: 600 nM
# Notes: 8-mer, flanks averaged, mean of replicates
# Reading: higher = stronger binding
Sequence,E-score
AAGCCCTA,0.0652
CTAGACGA,-0.0151
ACTACTAA,0.226
ATTAATAG,0.427
GTACATAA,0.311
GGGGGCAC,-0.273
ATATGGAA,0.31
AGGTTAGA,-0.0861
CTTGGCTA,-0.0572
CGGTCATC,-0.181
TGGAAACA,0.0497
AGGGCATG,-0.101
CGCGGTCA,-0.301
TCTTAAGA,0.149
AATGCAAA,0.305
TAAAGCTA,0.0847
CGAGGGGA,-0.239
ATTATCGC,0.333
GTTTGAAA,0.215
TCTTCACA,0.179
AAATCCCG,-0.088
ACAACCGC,-0.196
AATCATGA,0.289

# Series 5
# Target: RING finger protein unkempt homolog, zinc fingers 1-6, GST-SBP tag (UNK, Homo sapiens, UniProt Q9C0B0, residues 30-357)
# Method: RNA Bind-n-Seq
# Form: RNA
# Sample: in vitro
# Tested at: not given
# Notes: RNA with constant flanks, human and mouse sites, ends assumed
# Baseline: input RNA pool
# Reading: higher = stronger binding
# Construct (chain): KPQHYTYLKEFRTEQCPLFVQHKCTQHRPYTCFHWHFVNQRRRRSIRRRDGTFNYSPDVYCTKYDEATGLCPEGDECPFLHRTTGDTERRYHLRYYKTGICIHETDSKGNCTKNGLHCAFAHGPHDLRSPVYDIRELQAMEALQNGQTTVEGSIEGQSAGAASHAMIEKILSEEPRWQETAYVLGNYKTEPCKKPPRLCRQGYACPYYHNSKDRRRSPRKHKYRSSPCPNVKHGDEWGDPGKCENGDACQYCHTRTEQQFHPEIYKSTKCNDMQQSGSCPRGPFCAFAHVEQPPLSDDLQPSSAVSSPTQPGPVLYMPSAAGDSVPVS
Sequence,bound/input enrichment [ratio]
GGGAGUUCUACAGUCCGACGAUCUUAAUGUUUUCGAACUGCUUUGAAUACAACCCUCGUAACACAAGUGAAGCAAAAGCUGGAACUAGGCUUCAAGCAUUUUUUCAUAUUCAGGCUCAAAAGCUUGGACUCCACGUCACACCCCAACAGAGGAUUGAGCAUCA,0.251
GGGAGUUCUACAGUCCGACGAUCUUGGAUUUCAUUUCCCCAGGUCUUCAGUGUUGAUGUAAAUGUGUUUCUGUAGUGUUGCUUAUUAGCACUUUGCGCAUUGUGUAAGUUGGGUAGCAAAAAUGGCAAAAGAGAUGCAAAAUUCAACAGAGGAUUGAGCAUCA,0.258
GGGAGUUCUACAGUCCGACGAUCAGUGUGGACAAAGGAUGCAAAGCUGUGCUGUGGGCACAGUACUGACGGGGCUCUCAGGGCUGGGAGGACCCCAGUGCCCUCCUCAGAAGAAGCACAUGGGCUCCUGCAGCCCUGUCCUGGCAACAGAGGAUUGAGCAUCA,0.0997
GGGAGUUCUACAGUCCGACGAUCUCAGAAAGUGCUACAUCUGUCCCACCCUCUGACACACCUUCUCUCACAUCAUCUGUUUCUUCGGUCUGUACCACAGAUAGCUCUUCACCCAUUACUACCCUGGAUAGCAUAACCACAGUUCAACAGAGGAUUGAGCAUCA,0.544
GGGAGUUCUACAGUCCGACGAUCCCAGGAGUGUAACUCUCUGAGUGAUGUGCUGGACACAUUUUCAAAAGCACCUACAUUUCCUGGUAGUAACUAUUUCUUAGCAAUGUGGAUAAUUGCCAAAAGGAUAUCUGAAGACAAGAGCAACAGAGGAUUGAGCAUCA,0.998
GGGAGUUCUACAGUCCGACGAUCGAAUCCAGUGAUUUGGUACAUGUUAAAUGGGAAUUAAAAAUCCAAAGACCCUGUAAUGAAUAGUAAAGAUGAUGAUUUAUGUUGUAUGAGGAACCAAACUAUUGUAAUUUUGUACCAUACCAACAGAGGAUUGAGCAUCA,0.743
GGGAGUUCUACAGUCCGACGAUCUGCCGGCCCGGAGGAGGCCCGGCCAUGGGUGGAAACCUCAAAGCUCGGGGGGCCGGCGGUAGCAGCAGUUGCGGGGGCCCAAAGGGGAAGAAGAAGAACGGAAGGAACAGAGGAGGUAAACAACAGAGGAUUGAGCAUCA,0.303
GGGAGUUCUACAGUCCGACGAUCUGAUAACUGUUCCAACGGCCCUUCUGGCUCCAGUCAUGGUGCAAGAGUAGAUUAAGGAUGUUGUCUCUAGGACUGUGUACAGAGACUCUGGAGCGGCCCCUCCGUGUAAGCCCCCUGAGACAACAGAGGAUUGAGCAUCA,0.276
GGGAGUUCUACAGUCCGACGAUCCUGCAUUAUUUGACCAGAGUUGAAGUGACAGAAUUUGAAGAUAUUAAAUCAGGUUACAGAAUAGAUUUUUAUUUUGAUGAAAAUCCUUACUUUGAAAAUAAAGUUCUCUCCAAAGAAUUUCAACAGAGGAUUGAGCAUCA,7.25
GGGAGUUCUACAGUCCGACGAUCGCCAGAGGGGUUCUCAAGUGUGACAUUACAGAUCUCCAAAUCAUUUGCUCCUUGGGAUAUAGCAUUCUUCUCAUGGUCACAUGUACUGUGUAUGCCAUCAAGACUCGGGGUGUACCCGAGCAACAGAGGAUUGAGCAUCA,0.205
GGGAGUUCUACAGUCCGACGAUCACUUUUUAAGCUGUCAGUGGUAUCAAAUAACUUACCUAGUUGGAGGCAGAUAAAGGAUCCCUUACGUUUUUUCCUAUAAGGCCUAAAUUGAAAUUGUUAACCAAGGAAACAGGGUCAGCCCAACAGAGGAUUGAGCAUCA,0.126
